Measurements collected from several papers.
Compare with care: the assays were run in different laboratories. ± marks the error that the study gave.
BCHE: Cholinesterase (BCHE, Homo sapiens, UniProt P06276)
Sequence of UniProt P06276 (whole entry, looked up): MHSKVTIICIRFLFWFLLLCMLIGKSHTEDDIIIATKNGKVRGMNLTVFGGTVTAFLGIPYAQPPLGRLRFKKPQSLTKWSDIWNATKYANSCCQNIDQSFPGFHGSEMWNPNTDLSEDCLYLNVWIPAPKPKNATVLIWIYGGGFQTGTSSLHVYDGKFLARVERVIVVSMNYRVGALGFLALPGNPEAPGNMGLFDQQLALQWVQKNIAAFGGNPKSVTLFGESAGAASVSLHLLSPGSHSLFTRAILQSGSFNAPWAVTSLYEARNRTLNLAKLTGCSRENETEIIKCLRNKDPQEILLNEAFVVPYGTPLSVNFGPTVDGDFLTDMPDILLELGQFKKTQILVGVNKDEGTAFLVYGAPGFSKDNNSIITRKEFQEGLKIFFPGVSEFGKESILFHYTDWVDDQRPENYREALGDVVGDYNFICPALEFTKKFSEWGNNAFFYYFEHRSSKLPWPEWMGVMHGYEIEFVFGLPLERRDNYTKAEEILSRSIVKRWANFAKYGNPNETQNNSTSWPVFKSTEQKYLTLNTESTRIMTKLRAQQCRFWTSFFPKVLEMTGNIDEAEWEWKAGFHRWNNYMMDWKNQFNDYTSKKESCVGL
Trpv1: Transient receptor potential cation channel subfamily V member 1 (Trpv1, Rattus norvegicus, UniProt O35433)
Sequence of UniProt O35433 (whole entry, looked up): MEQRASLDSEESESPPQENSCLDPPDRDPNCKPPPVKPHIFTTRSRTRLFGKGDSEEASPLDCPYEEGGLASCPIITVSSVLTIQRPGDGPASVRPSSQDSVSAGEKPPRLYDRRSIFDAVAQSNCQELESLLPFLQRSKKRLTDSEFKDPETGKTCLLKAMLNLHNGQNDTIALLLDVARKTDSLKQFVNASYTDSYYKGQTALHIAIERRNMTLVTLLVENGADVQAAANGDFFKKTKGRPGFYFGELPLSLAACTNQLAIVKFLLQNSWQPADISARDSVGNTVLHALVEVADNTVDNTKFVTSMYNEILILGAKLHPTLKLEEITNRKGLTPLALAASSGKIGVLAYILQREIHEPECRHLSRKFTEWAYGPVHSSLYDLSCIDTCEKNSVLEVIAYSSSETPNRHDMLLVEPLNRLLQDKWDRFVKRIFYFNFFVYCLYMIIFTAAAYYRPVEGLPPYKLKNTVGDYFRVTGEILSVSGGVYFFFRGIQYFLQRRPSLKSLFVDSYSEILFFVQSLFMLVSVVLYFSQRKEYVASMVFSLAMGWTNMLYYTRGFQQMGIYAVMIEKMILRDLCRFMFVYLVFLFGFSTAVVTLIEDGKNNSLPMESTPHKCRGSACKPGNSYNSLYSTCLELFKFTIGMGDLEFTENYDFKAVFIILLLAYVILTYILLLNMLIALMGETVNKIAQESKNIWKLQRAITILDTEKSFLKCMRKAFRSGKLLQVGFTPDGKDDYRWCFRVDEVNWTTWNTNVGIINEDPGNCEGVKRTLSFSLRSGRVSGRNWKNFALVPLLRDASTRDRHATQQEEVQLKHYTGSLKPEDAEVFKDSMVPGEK
Mycosin-1: Mycosin-1 (Mycolicibacterium thermoresistibile, UniProt G7CDQ2)
OPRM1: Mu-type opioid receptor (OPRM1, Cavia porcellus, UniProt P97266)
Sequence of UniProt P97266 (whole entry, looked up): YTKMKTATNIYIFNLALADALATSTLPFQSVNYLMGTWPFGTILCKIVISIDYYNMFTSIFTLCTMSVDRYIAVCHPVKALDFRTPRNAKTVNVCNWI
Sequence of UniProt P30530 (whole entry, looked up): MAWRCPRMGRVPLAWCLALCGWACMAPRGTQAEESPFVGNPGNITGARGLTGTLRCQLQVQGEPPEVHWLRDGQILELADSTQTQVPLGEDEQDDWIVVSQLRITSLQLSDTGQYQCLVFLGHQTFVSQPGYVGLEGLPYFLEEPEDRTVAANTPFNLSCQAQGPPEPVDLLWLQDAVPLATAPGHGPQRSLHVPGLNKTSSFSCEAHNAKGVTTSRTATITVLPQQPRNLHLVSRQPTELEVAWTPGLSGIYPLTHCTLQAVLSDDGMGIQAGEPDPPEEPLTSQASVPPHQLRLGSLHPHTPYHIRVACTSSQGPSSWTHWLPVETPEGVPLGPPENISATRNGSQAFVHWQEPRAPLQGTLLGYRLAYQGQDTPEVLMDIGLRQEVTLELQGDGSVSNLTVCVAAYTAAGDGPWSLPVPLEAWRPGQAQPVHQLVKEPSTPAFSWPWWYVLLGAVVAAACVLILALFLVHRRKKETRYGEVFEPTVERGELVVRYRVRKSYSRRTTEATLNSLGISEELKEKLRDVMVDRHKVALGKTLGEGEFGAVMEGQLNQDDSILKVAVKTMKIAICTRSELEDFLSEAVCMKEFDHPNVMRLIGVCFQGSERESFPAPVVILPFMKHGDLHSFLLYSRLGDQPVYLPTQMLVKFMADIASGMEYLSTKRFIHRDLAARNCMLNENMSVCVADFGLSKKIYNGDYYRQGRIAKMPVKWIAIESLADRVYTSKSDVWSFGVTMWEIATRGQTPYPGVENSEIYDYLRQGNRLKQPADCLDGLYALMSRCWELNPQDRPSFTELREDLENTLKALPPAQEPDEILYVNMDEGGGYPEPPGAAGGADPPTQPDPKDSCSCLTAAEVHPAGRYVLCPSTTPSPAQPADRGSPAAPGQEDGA
Sequence of UniProt O15393 (whole entry, looked up): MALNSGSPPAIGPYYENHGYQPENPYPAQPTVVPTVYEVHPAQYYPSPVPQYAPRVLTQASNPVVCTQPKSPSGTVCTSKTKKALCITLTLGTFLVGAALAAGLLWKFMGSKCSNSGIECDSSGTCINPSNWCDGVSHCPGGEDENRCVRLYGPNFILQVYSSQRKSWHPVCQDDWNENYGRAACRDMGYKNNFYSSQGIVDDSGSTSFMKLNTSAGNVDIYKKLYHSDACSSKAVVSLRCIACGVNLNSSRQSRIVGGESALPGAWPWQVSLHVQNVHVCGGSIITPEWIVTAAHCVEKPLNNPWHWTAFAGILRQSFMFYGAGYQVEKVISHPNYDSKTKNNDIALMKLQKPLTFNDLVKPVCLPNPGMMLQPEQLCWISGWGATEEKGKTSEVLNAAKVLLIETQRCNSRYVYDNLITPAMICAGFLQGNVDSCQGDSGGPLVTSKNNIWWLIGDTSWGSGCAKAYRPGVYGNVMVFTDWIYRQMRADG
Sequence of UniProt Q0CPG9 (whole entry, looked up): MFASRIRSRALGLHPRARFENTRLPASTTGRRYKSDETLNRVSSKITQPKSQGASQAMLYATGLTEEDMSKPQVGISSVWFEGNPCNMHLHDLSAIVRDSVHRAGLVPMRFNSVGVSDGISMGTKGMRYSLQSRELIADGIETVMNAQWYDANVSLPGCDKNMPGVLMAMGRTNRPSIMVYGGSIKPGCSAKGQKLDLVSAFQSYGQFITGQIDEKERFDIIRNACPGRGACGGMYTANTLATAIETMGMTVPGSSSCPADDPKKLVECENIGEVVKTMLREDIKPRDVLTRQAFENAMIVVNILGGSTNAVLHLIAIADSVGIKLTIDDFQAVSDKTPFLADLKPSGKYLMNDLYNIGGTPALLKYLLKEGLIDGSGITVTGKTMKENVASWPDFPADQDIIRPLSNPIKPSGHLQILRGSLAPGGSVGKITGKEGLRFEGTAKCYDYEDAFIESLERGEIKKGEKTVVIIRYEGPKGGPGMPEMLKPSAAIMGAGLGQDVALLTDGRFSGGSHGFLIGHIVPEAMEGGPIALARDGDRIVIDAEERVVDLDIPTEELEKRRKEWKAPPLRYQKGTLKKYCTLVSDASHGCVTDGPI
Sequence of UniProt P78325 (whole entry, looked up): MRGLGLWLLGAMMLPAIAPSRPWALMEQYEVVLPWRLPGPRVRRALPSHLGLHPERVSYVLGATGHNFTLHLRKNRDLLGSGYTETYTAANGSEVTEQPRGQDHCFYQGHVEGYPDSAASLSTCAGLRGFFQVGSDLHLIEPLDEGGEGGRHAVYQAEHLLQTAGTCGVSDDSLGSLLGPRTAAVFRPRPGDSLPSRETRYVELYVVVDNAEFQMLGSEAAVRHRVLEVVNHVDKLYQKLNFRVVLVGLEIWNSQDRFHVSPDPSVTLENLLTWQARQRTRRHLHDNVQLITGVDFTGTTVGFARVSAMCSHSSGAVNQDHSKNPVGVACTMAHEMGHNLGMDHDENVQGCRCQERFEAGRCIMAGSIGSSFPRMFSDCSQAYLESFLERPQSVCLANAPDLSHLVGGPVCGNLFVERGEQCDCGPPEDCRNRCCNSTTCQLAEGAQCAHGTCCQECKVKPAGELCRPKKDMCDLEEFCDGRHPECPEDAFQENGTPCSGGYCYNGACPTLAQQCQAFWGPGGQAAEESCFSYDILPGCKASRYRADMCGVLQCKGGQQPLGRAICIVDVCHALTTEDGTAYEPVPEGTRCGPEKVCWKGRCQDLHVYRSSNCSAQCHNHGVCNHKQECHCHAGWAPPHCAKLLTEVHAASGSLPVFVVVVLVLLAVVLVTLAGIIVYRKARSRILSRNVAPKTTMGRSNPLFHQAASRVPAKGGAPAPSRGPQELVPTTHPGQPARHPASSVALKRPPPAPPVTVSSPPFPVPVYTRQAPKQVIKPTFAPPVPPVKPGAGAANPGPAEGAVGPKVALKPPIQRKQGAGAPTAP
Sequence of UniProt P22303 (whole entry, looked up): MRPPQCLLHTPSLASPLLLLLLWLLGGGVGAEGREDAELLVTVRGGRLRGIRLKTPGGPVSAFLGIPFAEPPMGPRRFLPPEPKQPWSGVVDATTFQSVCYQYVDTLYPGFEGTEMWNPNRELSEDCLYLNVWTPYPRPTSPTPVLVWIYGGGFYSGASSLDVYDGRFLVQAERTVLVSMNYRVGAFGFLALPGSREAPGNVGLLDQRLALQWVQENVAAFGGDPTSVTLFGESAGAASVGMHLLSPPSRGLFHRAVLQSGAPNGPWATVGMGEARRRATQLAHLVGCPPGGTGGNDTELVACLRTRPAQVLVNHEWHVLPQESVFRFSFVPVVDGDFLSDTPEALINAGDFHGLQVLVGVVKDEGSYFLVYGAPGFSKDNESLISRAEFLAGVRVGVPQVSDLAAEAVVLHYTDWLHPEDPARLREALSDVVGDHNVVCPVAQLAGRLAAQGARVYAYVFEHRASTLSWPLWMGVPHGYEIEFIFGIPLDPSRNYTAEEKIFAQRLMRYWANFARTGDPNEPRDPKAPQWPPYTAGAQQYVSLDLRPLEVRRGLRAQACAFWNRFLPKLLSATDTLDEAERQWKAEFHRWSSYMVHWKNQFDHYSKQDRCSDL

Compound	target	test	test system	setting	scale	inhibition
C=CC1CN2CCC1CC2C(O)c1ccnc2ccc(-c3ccccc3)cc12 (stereo not drawn)	Sodium channel protein type 5 subunit alpha (SCN5A, Homo sapiens, UniProt Q14524)	ion current, inhibitor, patch clamp	HEK-293T	10 µM, pH 7.3	–	44.7%
O=c1c(O)c(-c2cc(O)ccc2O)oc2cc(O)cc(O)c12	BCHE	enzyme activity, inhibitor, Ellman	–	62.5 µg/mL	–	45.2%
C=C(C)[C@]12C[C@@H](C)[C@@]34O[C@](Cc5ccccc5)(O[C@@H]1[C@@H]3C=C(COC(=O)Cc1cc(I)c(O)c(OC)c1)C[C@]1(O)C(=O)C(C)=C[C@@H]41)O2	Trpv1	acid-evoked calcium influx, antagonist	HEK293, rat	11.25 µM, pH 5	–	-3 ± 0.55%
CSCC[C@H](NC(=O)[C@H](CC(C)C)NC(=O)CNC(=O)[C@H](Cc1ccccc1)NC(=O)[C@H](Cc1ccccc1)NC(=O)[C@H](CCC(N)=O)NC(=O)[C@H](CCC(N)=O)NC(=O)[C@@H]1CCCN1C(=O)[C@H](CCCCNC(=O)c1ccc(-c2c3ccc(=[N+](C)C)cc-3oc3cc(N(C)C)ccc23)c(C(=O)[O-])c1)NC(=O)[C@@H]1CCCN1C(=O)[C@@H](N)CCCNC(=N)N)C(N)=O	Substance-P receptor (TACR1, Aquarana catesbeiana, UniProt Q98982)	M-type K+ current, whole-cell patch clamp	bullfrog sympathetic neurons	1 µM	–	57 ± 33%
CC(C)C[C@@H]1NC(=O)[C@H](C(C)C)NC(=O)[C@H](C)NC(=O)[C@H](Cc2ccc(O)cc2)NC(=O)[C@H](CCC(N)=O)NC(=O)[C@H](CC(C)C)NC(=O)[C@@H](Cc2ccc(O)cc2)NC(=O)CSC[C@@H](C(N)=O)NC(=O)[C@H](CCC(=O)O)NC(=O)[C@H](CCCNC(=N)N)NC(=O)[C@H](CCCNC(=N)N)NC(=O)[C@H](CCCCN)NC(=O)[C@H](Cc2c[nH]cn2)NC(=O)[C@H](CCCNC(=N)N)NC1=O	Transmembrane protease serine 2 (TMPRSS2, Homo sapiens, UniProt O15393)	enzyme activity	–	10 µM	–	inactive
O=C(O)CCCC(=O)O	BCHE	enzyme activity, inhibitor, Ellman	–	62.5 µg/mL	–	40.1%
N#C[C@@H](/N=N/c1ccc(S(=O)(=O)O)cc1)C(N)=O	Mycosin-1	enzyme activity	–	150 µM	baseline: DMSO control	56%
CC(=O)NC(Cc1ccc(Br)c(Cl)c1)C(=O)N[C@@H](C)C(=O)N1CCC[C@H]1C(=O)N1CCC[C@H]1C(=O)N[C@@H](CCC(=O)O)C(=O)N[C@@H](Cc1c[nH]cn1)C(=O)N[C@@H](CO)C(=O)N[C@H](C(=O)N[C@@H](C)C(N)=O)[C@@H](C)OP(=O)(O)O (stereo partly drawn)	Tyrosine-protein kinase receptor UFO (AXL, Homo sapiens, UniProt P30530)	enzyme activity, inhibitor	–	10 µM	–	0.13%
O=C(O)/C=C/c1cc(O)cc(O)c1	BCHE	enzyme activity, inhibitor, Ellman	–	125 µg/mL	–	54.2%
CC(C)C[C@H](NC(=O)[C@@H]1CCCN1C(=O)[C@@H]1NC(=O)[C@H](Cc2ccccc2)NC(=O)CNC(=O)[C@H](NC(=O)[C@@H](N)Cc2ccc(O)cc2)C(C)(C)SSC1(C)C)C(=O)N[C@@H](Cc1c[nH]c2ccccc12)C(=O)NCc1cc(C(F)(F)F)cc(C(F)(F)F)c1	OPRM1	electrically stimulated contraction, agonist	guinea pig isolated ileum	1 µM	–	0.6%
N#CC1(c2ccc3c(N)ncnn23)OC(COP(=O)(O)OP(=O)(O)OP(=O)(O)O)C(O)C1O (stereo not drawn)	RNA-directed RNA polymerase L (Human respiratory syncytial virus A, UniProt P28887)	RNA synthesis	–	concentration not given	–	inhibited
Cc1ccc(N2CC3CCC(C2)N3C)cc1C(=O)N[C@H](C)c1cc(-c2cnn(C)c2)nc2ccccc12	Cathepsin K (CTSK, Homo sapiens, UniProt P43235)	enzyme activity	–	concentration not given	–	no inhibition
CC(C)C[C@@H]1NC(=O)[C@H](CCCNC(=N)N)NC(=O)[C@H](CCCCN)NC(=O)[C@H](CC(=O)O)NC(=O)[C@H](C)NC(=O)[C@@H](CO)NC1=O	Disintegrin and metalloproteinase domain-containing protein 8 (Homo sapiens, UniProt P78325)	CD23 shedding, ELISA	COS-7, transfected with target and CD23	concentration not given, dose-response	–	no effect
O=C(O)/C=C/c1ccc(O)cc1	Acetylcholinesterase (ACHE, Homo sapiens, UniProt P22303)	inhibitor	–	62.5 µg/mL	–	48.2 ± 1.4%
COc1cc(OC)c(C(=O)/C=C/c2ccc(N(C)CCO)cc2)c(OC)c1	Prostaglandin G/H synthase 2 (PTGS2, Homo sapiens, UniProt P35354)	enzyme activity, inhibitor, ELISA	–	40 µg/mL	–	80.7 to 92.5%
CCCC[C@@H]1NC(=O)[C@H](Cc2ccccc2)NC(=O)CNC(=O)[C@H](NC(=O)[C@@H](N)Cc2ccc(O)cc2)C(C)(C)SSC(C)(C)[C@H](C(=O)N[C@@H](Cc2c[nH]c3ccccc23)C(=O)NCc2cc(C(F)(F)F)cc(C(F)(F)F)c2)NC(=O)[C@@H]2CCCN2C1=O	OPRM1	electrically stimulated contraction, agonist	guinea pig isolated ileum	1 µM	–	7%
[Cl][Au-][P+](c1ccccc1)(c1ccccc1)c1cc[cH-]c1.[Cl][Au-][P+](c1ccccc1)(c1ccccc1)c1cc[cH-]c1.[Cl][Ti+2][Cl]	RAC-beta serine/threonine-protein kinase (AKT2, Homo sapiens, UniProt P31751)	kinase activity	–	10 µM	–	≥ 50%
CC(C)[C@H]1NC(=O)[C@H](CO)NC(=O)c2cc3cc(c2)C(=O)NC[C@H](NC(=O)[C@H](Cc2c[nH]cn2)NC(=O)[C@H](Cc2ccc(C(F)(F)P(=O)(O)O)cc2)NC(=O)[C@@H]2CCCN2C1=O)C(=O)N[C@@H](Cc1ccccc1)C(=O)N[C@@H](Cc1ccc2ccccc2c1)C(=O)N[C@@H](CCCNC(=N)N)C(=O)N[C@@H](CCCNC(=N)N)C(=O)N[C@@H](CCCNC(=N)N)C(=O)N[C@@H](CCCNC(=N)N)C(=O)N[C@H](C(=O)N[C@@H](CCCCN)C(N)=O)CNC3=O	Tyrosine-protein phosphatase non-receptor type 3 (PTPN3, Homo sapiens, UniProt P26045)	enzyme activity, inhibitor, absorbance	–	1 µM	–	≤ 10%
CC(C)=C1CC[C@]23CO[C@H](C2)[C@@](O)(C(=O)O)CC[C@@H]13	Dihydroxy-acid dehydratase astD, mitochondrial (astD, Aspergillus terreus, UniProt Q0CPG9)	enzyme activity, inhibitor	–	up to 8 mM	–	no inhibition
Cc1ccc(C(=O)Nc2cccc3cnccc23)cc1S(=O)(=O)N1CCCCC1	Trpv1	capsaicin-activated current, inhibitor, two-electrode voltage clamp	Xenopus oocytes	100 µM, together with: capsaicin 1 µM	–	inhibited
C=C1C(=O)N[C@@H](C)C(=O)N(C)[C@@H](C)C(=O)N[C@@H]([C@H](OC(=O)[C@@H](NC(C)=O)[C@H](O)C(C)C)C(C)C)C(=O)N(C)[C@@H]([C@@H](C)OC)C(=O)O[C@H](C)[C@H](NC(C)=O)C(=O)O[C@H](Cc2ccccc2)C(=O)N1C	Guanine nucleotide-binding protein subunit alpha-11 (Homo sapiens, UniProt P29992, R183C)	basal IP1 accumulation, inhibitor	HEK293 expressing Gα11 R183C	concentration not given	–	inhibited
CC(C)OC(=O)C(n1cccn1)n1cccn1.F[P-](F)(F)(F)(F)F.[Cu+].c1ccc(P(c2ccccc2)c2ccccc2)cc1	Protein disulfide-isomerase (P4HB, Homo sapiens, UniProt P07237)	enzyme activity, inhibitor	–	50 µM	–	~90%
COc1ccccc1/N=N/[C@H](C#N)C(N)=O	Mycosin-1	enzyme activity	–	150 µM	baseline: DMSO control	41%
S=C(NCc1ccccn1)NCc1ccccn1	BCHE	enzyme activity, inhibitor, Ellman	–	1000 µg/mL	–	70.1%
